# Assay results from different studies.
# Each numbered part is a random draw from the data of one study; scales do not carry over between parts. Substitutions count along the parent as printed.

# Sample 1 — target: CCNA1, cyclin fold, Cln2 fusion (human); technique: yeast growth competition, sequencing; matrix: yeast; setting: weak parent motif; reference: not given; direction: higher = stronger binding; starting sequence: viral docking peptide; KKVKRRLFETREL
Substitution,normalised enrichment score
R6A,0.613
T10A,0.41
R5K F8L,-0.137
E9A,0.426
V3A,0.256
R11A,0.782
E12A,0.448
K2A,0.648

# Sample 2 — read-out: enzyme activity; mode: inhibitor; technique: radiometric; tested at: 0.5 µM
# Target: Dual specificity tyrosine-phosphorylation-regulated kinase 1B (DYRK1B, Homo sapiens, UniProt Q9Y463)
Structure (SMILES),remaining activity
CC(C)[C@H](CO)Nc1nc(Nc2cccc(Cl)c2)c2ncn(C(C)C)c2n1,49.9%
O=C(Nc1ccc(Cl)cc1)c1ccccc1NCc1ccncc1,106%
CS(=O)(=O)CCNCc1ccc(-c2ccc3ncnc(Nc4ccc(OCc5cccc(F)c5)c(Cl)c4)c3c2)o1,93.1%
CCN1/C(=C/C(C)=O)Sc2ccc(OC)cc21,32.9%
COc1cc2ncc(-c3ccccc3)nc2cc1OC,110%
COc1ccc(-c2cnc3c(-c4ccsc4)cnn3c2)cc1,78.9%
COc1cc2ncnc(Nc3ccc(OCc4ccccc4)cc3)c2cc1OC,104%
CCOc1cc2ncnc(Nc3cccc(Br)c3)c2cc1OCC,103%
O=c1cc(N2CCOCC2)oc2c1ccc1ccccc12,90.5%
COc1cc2ncnc(N3CCN(C(=O)Nc4ccc(Oc5ccccc5)cc4)CC3)c2cc1OC,93.5%

# Mixed results
Substance,tested on,assay,system,setting,quantity,result
DEQSIAEA,"HLA class I histocompatibility antigen, B alpha chain, allele B*18:01 (Homo sapiens, UniProt P01889)",peptide-MHC binding,peptide,concentration not given,binding,active
CN1C(=O)COc2c(C(=O)NC3CN4CCC3CC4)cc(Cl)cc21 (centres unmarked),Sarcocystis neurona,parasite growth,,"10 µM, 96 h, secondary screen",inhibition,-13.4%

# For quick reference, copied from above (sample 2):
Structure (SMILES),remaining activity
O=c1cc(N2CCOCC2)oc2c1ccc1ccccc12,90.5%
CC(C)[C@H](CO)Nc1nc(Nc2cccc(Cl)c2)c2ncn(C(C)C)c2n1,49.9%
COc1cc2ncnc(Nc3ccc(OCc4ccccc4)cc3)c2cc1OC,104%
